Experimental data collected from several papers.
Lines come from different studies, so protocols differ. Converted amounts (≈) assume the structure as drawn.

| Compound | tested on | test | system | conditions | scale | quantity | value |
| --- | --- | --- | --- | --- | --- | --- | --- |
| CN1CCCNC(=O)c2cccc(c2)C(=O)NCCCN(C)CCCNc2cccc3c2C(=O)c2cccc(c2C3=O)NCCC1 | SAS | RNA-seq, item: RRH mRNA |  | 1 µM, 6 h | relative to: untreated cells | log2 fold change | 6.59 |
| CCN(CC)CC(=O)Nc1cccc(-n2cc(-c3ccc4ccc(-c5cn(-c6cccc(NC(=O)CN(CC)CC)c6)nn5)cc4c3)nn2)c1 | RCC4 | PCR angiogenesis array, item: ANGPTL4 |  | 5 x IC50, 4 h, normoxia | relative to: untreated | fold regulation | -2.32 |
| C=CC(=O)N1[C@@H](c2ccc3c(c2)OCO3)c2[nH]c3ccccc3c2C[C@H]1C(=O)N1CCN(C)CC1 | human cyclin E1 N112C-3xFLAG:CDK2 | co-IP with TMT proteomics, item: DNAJA1 |  | concentration not given, P31689 | relative to: wild type DMSO | relative co-enrichment | 102% |
| C=CC(=O)Nc1cccc(Cn2ncc3cnc(Nc4cnn(CCOC)c4)nc32)c1 | PRKG1 human | binding, KINOMEscan |  | 100 nM | lower = stronger binding | percent of control | 100% |
| N=C(N)NCCC[C@@H]1NC(=O)[C@H](CCCNC(=N)N)NC(=O)[C@@H](C(c2ccccc2)c2ccccc2)NC(=O)[C@H](Cc2c[nH]c3ccccc23)NC(=O)[C@@H](C(c2ccccc2)c2ccccc2)NC(=O)[C@@H](CCCNC(=N)N)NC(=O)[C@@H](CCCNC(=N)N)NC1=O | Candida albicans |  | CA3 |  |  | MIC | 32 µg/mL (≈ 25.4 µM) |
| c1ccc(-c2n[nH]cc2-c2ccnc3ccccc23)nc1 | CDC7 (Candida albicans) | kinase binding, MIB/MS competition | Candida albicans lysate | 1 µM | relative to: DMSO | log2 fold change | -0.02 |
| CNS(=O)(=O)Nc1nccc(Cc2c(C)c3ccc(Oc4ncccc4F)cc3oc2=O)c1F | COLO-800 | cell viability |  | 7 days |  | IC50 | 1.02 nM |
| CC(C)c1ccc(N(C)c2ccc3c(c2)OCC[C@H]3CNc2cnccc2C(=O)O)cc1 | NCI-H1755 | cell growth or viability, ATP luminescence |  | 7 days |  | IC50 | ≥ 10000 nM |
| COC1CN([C@H]2CC[C@H]([C@@]3(C)Oc4c(Cl)cc(C(=O)NCc5c(SC)cc(C)[nH]c5=O)c(C)c4O3)CC2)C1 |  | RNA-seq, item: SULT1A2 | human, whole blood | dose not given, 24 h | relative to: pretreatment baseline | log2 fold change | 2.2 |
| Cc1ncsc1-c1ccc(C(C)NC(=O)C2CC(O)CN2C(=O)C(NC(=O)CCCCCCCCCCN2CCCC(Nc3ncc(Cl)c(Nc4ccccc4S(=O)(=O)C(C)C)n3)C2)C(C)(C)C)cc1 (centres unmarked) | 22Rv1 | RNA-seq, item: ST3GAL1 mRNA |  | concentration not given | relative to: DMSO | log2 fold change | -2.03 |
| Cn1ncc2cc(-c3cncc(Cl)c3N3CCC4(CCNC4=O)CC3)ccc21 | LS174T | gene expression, microarray, item: VASN mRNA |  | concentration not given, 24 h | relative to: untreated cells | log2 fold change | -2.43 |
| Nc1ncc(-c2cc(-c3cnn(CC(F)(F)F)c3)ncc2F)nc1C(=O)NC1CNCC(F)C1 (centres unmarked) | TBK1 | KINOMEscan |  | 1 µM | relative to: DMSO control | remaining binding | 95% |
| Cc1cccc2c1N(C(=O)n1ccnn1)CC2 | Arabidopsis thaliana |  | wild type, seedlings | 100 µM, continuous red light, together with: 0.3 µM karrikin KAR2 |  | hypocotyl length | 4.89 mm |
| C=C(NC(=O)c1csc(-c2nc3c(cc2O)-c2nc(cs2)C(=O)NC(C(C)O)C(=O)NC(=C(C)OC)c2nc(cs2)C(=O)NC2c4nc(cs4)C(=O)NC(COC(=O)c4c5c6c(cccc6n4O)COC(=O)C(OC4CC(C)(O)C(N(C)C)C(C)O4)C2OC5)c2nc-3cs2)n1)C(N)=O (centres unmarked) | Streptococcus pneumoniae |  | -4, immunocompromised mice, lung | 8 mg/kg/day once daily, 24 h post-dose |  | lung bacterial load | 5 log10 CFU/lung |
